# Results gathered from unrelated publications.
# Every numbered part comes from another study and shows a few of its results, in no order. Substitutions count along the parent as printed.

# Study 1
# Target: Histone acetyltransferase KAT6A, winged helix 2, GST fusion (KAT6A, Homo sapiens, UniProt Q92794, residues 85-181)
# Method: protein binding microarray
# Molecule type: double-stranded DNA, one strand shown
# Medium: in vitro
# Concentration: not given
# Notes: 8-mer, flanks averaged, mean of 2 arrays, mostly near background
# Relative to: not given
# Reading: higher = stronger binding
# Residues (chain): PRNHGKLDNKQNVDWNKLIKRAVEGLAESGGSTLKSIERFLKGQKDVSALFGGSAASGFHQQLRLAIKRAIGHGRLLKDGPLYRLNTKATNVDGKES
Oligonucleotide,E-score
ACGGCAAC,0.0683
CATATGTC,-0.139
CATGGTAG,-0.129
ATGTAATA,-0.0777
CCGGGAGC,0.11
ATTAGCGC,-0.0138
CTCTGTAC,-0.099
ACATCACT,-0.072
CTGAGAAC,-0.00668
CTTCTACC,-0.0153
AACGAGTG,-0.144
ATTCCCTA,0.052
ACGGGCTG,0.0336
CGTCACAG,-0.0972
ATCAACAC,0.0138
AGCATCAG,-0.0137
ACCGATTC,-0.136
ACAGAGCA,0.115
CAAGTCAC,-0.0906
CGCTCGCA,0.251
GAAAATAA,0.0928
AAATTATA,-0.029
CAGGGAAA,-0.0433
CTGCCCGA,0.177
ATCCATGC,0.118

# Study 2
# Target: ABI1, truncated, D143A, DHFR fusion (Arabidopsis thaliana)
# Method: DHFR PCA, deep sequencing
# Medium: yeast
# Notes: methotrexate growth selection, single substitutions
# With: (+)-ABA 200 µM
# Relative to: wild-type fitted maximum
# Reading: higher = stronger binding
# Parent: PYL1, truncated, DHFR fusion (Arabidopsis thaliana); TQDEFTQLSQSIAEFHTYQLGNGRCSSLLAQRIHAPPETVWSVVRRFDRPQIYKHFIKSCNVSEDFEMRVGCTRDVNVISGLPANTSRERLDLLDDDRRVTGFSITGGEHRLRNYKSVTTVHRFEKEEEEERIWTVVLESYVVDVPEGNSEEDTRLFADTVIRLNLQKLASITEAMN
Change,relative binding score [%]
V100A,102
S80A,62.6
I79P,45.7
E152N,92.2
D97E,106
E174W,55.5
S150P,26.1
V62M,99.5
S87F,23.4
K126Y,101
S171R,99.3
I172Y,93.7
T160H,83.8
S11N,93.8

# Study 3
# Target: CCNA2, cyclin fold, Cln2 fusion (human)
# Method: yeast growth competition, sequencing
# Medium: yeast
# Notes: strong parent motif
# Relative to: not given
# Reading: higher = stronger binding
# Parent: CDKN1B docking peptide (human); PSACRNLFGPVDH; partner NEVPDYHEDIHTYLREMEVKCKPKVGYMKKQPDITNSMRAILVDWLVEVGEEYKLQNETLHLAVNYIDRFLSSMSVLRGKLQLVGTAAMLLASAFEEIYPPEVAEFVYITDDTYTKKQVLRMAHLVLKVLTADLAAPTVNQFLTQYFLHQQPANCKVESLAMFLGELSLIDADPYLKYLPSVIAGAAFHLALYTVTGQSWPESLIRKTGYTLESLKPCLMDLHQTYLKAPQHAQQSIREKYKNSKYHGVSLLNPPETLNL
Change,normalised enrichment score
PSFCRNLFGPVDH [A3F],4.11
MSACRNLFGPVDH [P1M],3.29
PSACRNLFGPVDV [H13V],3.76
PSACRNLFGRVDH [P10R],3.8
PSACRNLFGPVDL [H13L],3.67
PDACRNLFGPVDH [S2D],2.03
PIACRNLFGPVDH [S2I],3.4
PSACRHLFGPVDH [N6H],0.883
PSACRNLFGYVDH [P10Y],4.34
PSACRMLFGPVDH [N6M],3.34
PSACRNPFGPVDH [L7P],-0.0914
PSACRNLFPPVDH [G9P],2.92
PSACRNLPGPVDH [F8P],0.373
PSACRNLFGPVPH [D12P],2.93
PSACRNLFMPVDH [G9M],1.68
PSACRNLFGDVDH [P10D],3.59
PSACRNLFKPVDH [G9K],2.45
PSACRNLFGPDDH [V11D],4.55
PYACRNLFGPVDH [S2Y],2.11
PSACRNLFGLVDH [P10L],3.77
PSCCRNLFGPVDH [A3C],4.52
PSACRNHFGPVDH [L7H],0.297
PSACRNLFHPVDH [G9H],1.86

# Study 4
# Target: RING finger protein unkempt homolog, zinc fingers 1-6, GST-SBP tag (UNK, Homo sapiens, UniProt Q9C0B0, residues 30-357)
# Sequence of UniProt Q9C0B0 (30-357, looked up): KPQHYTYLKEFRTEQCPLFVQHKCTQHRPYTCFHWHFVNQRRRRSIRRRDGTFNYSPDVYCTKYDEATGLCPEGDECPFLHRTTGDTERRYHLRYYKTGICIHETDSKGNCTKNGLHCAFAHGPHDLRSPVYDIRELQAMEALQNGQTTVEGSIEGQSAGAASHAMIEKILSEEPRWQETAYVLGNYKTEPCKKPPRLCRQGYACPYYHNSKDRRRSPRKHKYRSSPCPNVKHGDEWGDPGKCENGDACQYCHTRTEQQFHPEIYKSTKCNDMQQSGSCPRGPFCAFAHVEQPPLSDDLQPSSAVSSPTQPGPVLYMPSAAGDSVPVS
# Method: RNA Bind-n-Seq
# Molecule type: RNA
# Medium: in vitro
# Concentration: not given
# Notes: RNA with constant flanks, human and mouse sites, ends assumed
# Relative to: input RNA pool
# Reading: higher = stronger binding
Oligonucleotide,bound/input enrichment
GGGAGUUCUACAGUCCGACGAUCUGUCACUGUGGGUAUAUCUUAUGCAUGUCAUUCAAUUGGUCAGAUUGGUUCUGUAUGGUUUUUAGUGGGCAUACAAACUAGUUAGUUCUUUUCACUUAAAUUUUAAAGGAGGAAGUUACCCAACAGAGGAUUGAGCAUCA,1.12 ratio
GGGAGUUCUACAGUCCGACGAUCGUUUAGAAUUAAUGAAACAGUUGGCGUUCACUGUCAGCAGCAUAGUGUGAUUUUGAAUGAAUUAGGCAGGAAUUCAAGAUUACUACUCUUAGCUCGCUCGCUCUCUCUCUCUCUCCACCGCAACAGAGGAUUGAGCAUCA,2.31 ratio
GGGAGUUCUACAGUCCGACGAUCAAGUGGGGCGAUGAGGUGGAAUACAUGUUGGUAUCUUUUGAUCAUGAAAAUAAAAAAGUCCGGUUGGUCCUGUCUGGGGAGAAAGUUCUUGAAACUCUGCAAGAGAAGGGGGAAAGGACACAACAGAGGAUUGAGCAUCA,0.651 ratio
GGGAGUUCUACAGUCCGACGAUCGAUUGUUUCAUUAUUUAUCAAGGACAUCAUGGUGAUGUUGGGGCUCCCAUAGCUGAUGUUAUUCUCCCAGGAGCUGCUUACACAGAGAAGUCUGCUACAUAUGUCAACACUGAGGGUAGACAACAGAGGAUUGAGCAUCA,0.361 ratio
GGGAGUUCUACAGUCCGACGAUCCAUCUGUUUUUUAAAUUACAUUUUUGUUUAUGUUCUUGAGCUGAUGUAGUGGAACUUGCCUAGCACAUUCAGGUCCCAGCCAGUUGGCAGAGCAUGCUCUCAUCUCCUUAUUCCAUACCCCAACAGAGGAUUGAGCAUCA,0.754 ratio
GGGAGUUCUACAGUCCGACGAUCAACCUCCUUCCUACUGGUUUAGACUACACUUACAACAAGGAAAAUGCCCCUCGUGUGACCAUAGAUUGAGAUUUAUACCACAUACCACACAUAGCCACAGAAACAUCAUCUUGAAAUAAACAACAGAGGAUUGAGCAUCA,2.74 ratio
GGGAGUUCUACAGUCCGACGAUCCAGUUUGGGAUCCCAUGAAGAGAGGGGUCCUUGGACAGCUCUUCUCCUCUCUUCAUCCCAUCUCUACCCCACCCCCUUGGCCCCCAGCCUCACUGCGGCUUAUACAGUACCCUAACCUGCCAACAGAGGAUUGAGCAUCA,0.365 ratio
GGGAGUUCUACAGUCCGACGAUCGGGAUUGAUCUCCUUAGGACCUAUCUUUGGCGUUGCCAGUUCCUUUUACCUUUUGUGAGUUUAGGUUUGAUGUGCUUUGGGGCUUUGAUCGGACUUUGUGCUUGCAUUUGCCGAAGCUUACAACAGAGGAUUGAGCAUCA,2.83 ratio
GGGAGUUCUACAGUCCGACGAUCUUACGCUCUCCCGCGGCACGUCCGCGAGGACUUGAAGUCCUGAGCGCUCAAGUUUGUCCGUAGGUCGAGAGAAGGCCAUGGAGGUGCCGCCACCGGCACCGCGGAGCUUUCUCUGUAGAGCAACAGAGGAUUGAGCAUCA,0.116 ratio
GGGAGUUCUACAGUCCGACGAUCAUGAAGCCAAAUAUUGAACCUCCUGAGAAUGUGGAGUGGAGUGGUGCUGAAGCCUCAAUGUUUAGAGUCCUCAUUGGCACUUACUAUGACAAUUUCUGUGCCAUUGCUAGGUUAAUUGGGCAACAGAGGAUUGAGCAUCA,0.457 ratio
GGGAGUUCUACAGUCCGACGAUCCUAACCCUUCAACCCCCUCGCCUCCUACUCUGAGACAAAAGAAAAAAUAUUAAAAAAAUGCAUAGGCUUAACUCGCUGAUGAGUUAAUUGUUUUAUUUUUAAACUCUUUUUGGGUCCAGUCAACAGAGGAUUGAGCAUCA,0.503 ratio

# Study 5
# Target: Interferon regulatory factor 7, full length, phosphomimetic (IRF7, Homo sapiens, UniProt Q92985, residues 1-503, S471D/S472D/S475D/S476D/S477D/S483D/S484D/S487D)
# Sequence of UniProt Q92985 (whole entry, unmodified, looked up): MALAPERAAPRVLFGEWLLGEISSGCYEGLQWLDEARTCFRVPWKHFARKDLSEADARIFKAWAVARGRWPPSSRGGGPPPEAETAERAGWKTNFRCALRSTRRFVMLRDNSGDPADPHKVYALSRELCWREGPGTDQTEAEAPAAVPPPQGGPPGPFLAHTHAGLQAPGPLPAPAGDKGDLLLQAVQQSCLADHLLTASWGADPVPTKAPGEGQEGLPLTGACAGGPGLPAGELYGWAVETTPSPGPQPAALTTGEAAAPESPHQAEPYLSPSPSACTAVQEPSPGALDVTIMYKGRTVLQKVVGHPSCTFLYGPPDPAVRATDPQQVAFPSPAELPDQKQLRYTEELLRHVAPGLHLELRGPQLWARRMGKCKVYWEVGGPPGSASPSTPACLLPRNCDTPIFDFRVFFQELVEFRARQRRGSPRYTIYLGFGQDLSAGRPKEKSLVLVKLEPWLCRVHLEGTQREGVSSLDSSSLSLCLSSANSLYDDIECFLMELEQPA
# Method: protein-binding microarray
# Molecule type: double-stranded DNA, one strand shown
# Medium: in vitro
# Concentration: 2200 nM top
# Notes: 60-bp whole probe
# With: salmon DNA 0.4 mg/ml
# Relative to: random background probes
# Reading: higher = stronger binding
# All sequences stand within: GCCTAGCAC … GTCTTGATTCGCTTGACGCTGCTG
Oligonucleotide,fitted relative affinity
CGCTCCCTTTATTCCACATTGTGCTAG,1.92 z-score
TCAAGCAAAAATGATTGACTGTGCTAG,-0.545 z-score
TCAGTGCTCATTTTTTTACTGTGCTAG,0.184 z-score
TTGGGTTTCCTTTCCCTTTAGTGCTAG,4.35 z-score
CATCATTGCCTGTTTTTCCCCGTGCTA,1.78 z-score
TTAGGTGTCCTACTGCTTTAGTGCTAG,0.423 z-score
TTAGCACTGCTACTGCTTTAGTGCTAG,0.23 z-score
TTCGCTTTCTTTAACTCATTGTGCTAG,2.36 z-score
TTAGGGATCGACTTTCGGTTAGTGCTA,5.44 z-score
TACGGTCTCCTTCTCCTGACGTGCTAG,1.39 z-score
TTAGGTCTCGGATTGGGTTAGTGCTAG,0.869 z-score
TTAGGACTGCTTTTCCTCTAGTGCTAG,0.811 z-score
GACGATCTCAGTTTCGAGTCGTGCTAG,5.97 z-score
GTGAGTTTGACATCTTCATCAGTGCTA,0.679 z-score
GACGATACCGGGTTTCGAGACGTGCTA,1.76 z-score
GACGGTATCCTACTGCTGTCGTGCTAG,0.911 z-score
GACGGACCGCTTTTCCTGACGTGCTAG,0.624 z-score
TCACCAATCAGGACTCAGACTGTGCTA,0.179 z-score
GACGATTTTAGTTTCGAGACGTGCTAG,4.86 z-score
CTGTTTTTGCTTTCTTTATGGTGCTAG,5.2 z-score
CAGCGCGCAGCTGCCAGAACGTGCTAG,-0.434 z-score
GACAGTCTCCTACTGCTGACGTGCTAG,0.516 z-score
GACGGTATCCGACTGGGGACGTGCTAG,-0.393 z-score
TCAACTTTGAATTAGAAACTGTGCTAG,-0.275 z-score
GACGATTTCAGTGTCGAGACGTGCTAG,0.533 z-score

# Mixed results
Substance,target,test,system,setting,how to read,measurement,value
"PhoQ, residues 284 288 289 292 302 303 SLKLQV","PhoP, residues 12 14 15 18 19 NMSFL (Escherichia coli, UniProt P23836)","Sort-seq, refers to: YFP reporter",E. coli,"PhoQ-PhoP variant library, with: 10 µM Mg2+","relative to: high Mg2+ state, higher = stronger signaling",fold induction,6.77

# Excerpt of the above (study 1):
Oligonucleotide,E-score
ATTAGCGC,-0.0138
ATGTAATA,-0.0777
ATTCCCTA,0.052
CTCTGTAC,-0.099
CATGGTAG,-0.129
GAAAATAA,0.0928
ACGGGCTG,0.0336
